Published values pooled from the literature.
A part holds a random share of what one study measured. Substitutions count along the parent as printed.

Block 1
Target: Hepatocyte nuclear factor 3-alpha (Foxa1, Mus musculus, UniProt P35582, residues 1-468, full length assumed)
UniProt P35582, sequence (whole entry, looked up): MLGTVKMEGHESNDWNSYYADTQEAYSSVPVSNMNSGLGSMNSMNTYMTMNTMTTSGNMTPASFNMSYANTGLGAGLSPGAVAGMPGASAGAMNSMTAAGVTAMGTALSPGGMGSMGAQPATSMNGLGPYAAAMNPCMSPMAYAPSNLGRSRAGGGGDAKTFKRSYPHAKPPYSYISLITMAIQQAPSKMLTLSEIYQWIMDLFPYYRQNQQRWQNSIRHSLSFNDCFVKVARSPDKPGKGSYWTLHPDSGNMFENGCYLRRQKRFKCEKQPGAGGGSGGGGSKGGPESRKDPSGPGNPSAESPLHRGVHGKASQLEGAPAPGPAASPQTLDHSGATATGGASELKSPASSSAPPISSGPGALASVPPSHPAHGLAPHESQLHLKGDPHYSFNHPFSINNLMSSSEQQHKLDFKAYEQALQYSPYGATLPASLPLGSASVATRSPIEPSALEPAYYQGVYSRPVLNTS
Technique: EMSA with sequencing
Molecule type: double-stranded DNA, one strand shown
Matrix: in vitro
Tested at: 10 and 20 nM
Notes: whole designed probe, mean of two concentrations, ends assumed
Reference: negative control set to 0
Direction: higher = stronger binding
Constant ends, left off below: GTGAGCGGTGCCCATTGATGGGGAAC … TTTCACTGGGATCGTGGGGAC
Oligonucleotide | normalised bound fraction [ratio]
ACAAAAATTCTTGAGCCATTTCCAGATACCGAATCTGACTCAGTGTTGGCAAAACCTACAAAATGAGTGACCAAGAAGGATAAACAAGTTTAGGTAATCTCTCTATAGACTGATTCATGATTTAAGTACATCAGTTAGCATTTAGCTTCATTTACCATCGTGTTTTAATGTCATTAAGAATGTAACTTCTTAG | 0.0431
GCATAAGCATTGCCAAGCCCAGATCTAATGGATAGTCACTTCAAGGCTGCTCTGTGTGGAAGCCTTACTCTTGTTTTTTTCACCTGCCTATCCTGTTGACCTATTTATTTTTATGTGAATGTCATTGTTTTATTCGCTTTAACAATATATTACATTTTGTGTCTGGTAATATAAGTCATTCTTTAATAATCTT | 0.0867
ATGTGGGAACTAATTGAGGACCATGTTTACAATGCGTACAAATCATAAATCAATTAGTTCATATTGATTTACAAACAAGGAAGAAAAAGTATTTGTTTACATTGATACTGTCCATGTAAACTTTTTTCAATTCAAAAGAAACACATAGTTCTGTCATAAAGTAGATTTTCTATCCCTTTTATTTTCTGAGCTT | 0.586
ATCTTCCCCCTCTTCCTTGCCCCACCAGTTTACCTTCCCGGGTATATTGGAGATAGGAAATTAATATAAGCCGGCATTCGTTAACCCTCTTCTGGCGCAAACTGCACATTGGTCTGGATGAATCATGGTCCTTTGGCGACGCCAGGCTCCGGGAGAGCAAAGCACCGTGTCAGGGCCATGATCCGGGGTGGCC | 0.0217
CCTGAGTTGGTGGAGCCACAAAAAGGAATCCCTGAGTCACTGCTTAGTCACTGGGCTGCCTTGGAGAGTTGATGAGACCTCAGCAAACTTTGTGTAAATAAAGAAATGAACGCTTACATTTTAACTACCGGAACTTGGAGGTTTGTTTGTTACTGCAACAAAGGTTAGCTTTATTGACTAATGCACTGTAACA | 0.494
TCTTTCCCCTTCTATGACTTGCAAATTTATATTTCTCTTAACAACCATAAAAACAACTACAGTTGCTGAAGAAATAAACACTCAGAAAGCAAATGTTTACTTTTAAATATGAGCAACTTTACATCTAATGCCAATGCCTGATAAAGAGAAATTTATAGTAAACAAAAAATATGGCCAAAATCACTTATTTAGC | 0.391
ATCTTCCCCCTCTTCCTTGCCCCACCAGCTCACCTACGGGGGTTATTTGCAGATAGGAAAATAAATAAAGCCGGCATTCGTTAACCCTCTTCTGGCGCAAACTGCTGTTTGCTCTGCATGAATCATGGTCCTTACGCGAGGCGTGGCTCCGGGAGAGCAAAGCACCGTGTCAGGCGCATGATCCGGGGTGGCC | 0.352
TCTTCTTTAGGACTCCTCCCACCCCTGCCTCTTCGGGCTTTGTTTTCTATGAGAGTGGAGACTACCAACTCTTCATATCTTCCCAGAGTCCCTGTTTACATATAACATTTTCGTTTTTTCTTTTTTTAAATAAAAGTTTATTCAGACAGTATTAGGCCAACTGATTTTACGAATTGTAATTATACGAAGCCCA | 0.231

Block 2
Target: Interferon regulatory factor 5, full length, phosphomimetic (IRF5, Homo sapiens, UniProt Q13568-2, residues 1-514, K96S/S451D/S453D/S456D/S462D)
Technique: protein-binding microarray
Molecule type: double-stranded DNA, one strand shown
Matrix: in vitro
Tested at: 250 nM
Notes: 60-bp whole probe
Added: salmon DNA 0.4 mg/ml
Reference: random background probes
Direction: higher = stronger binding
Constant ends, left off below: GCCTAGCAC … GTCTTGATTCGCTTGACGCTGCTG
Oligonucleotide | log fluorescence
TCATGTTTACATATGTTACTGTGCTAG | 0.357 z-score
TGAGGACTGGGGTATCGGTTAGTGCTA | 2.22 z-score
GACGACCTGAGTCTCGAGACGTGCTAG | -0.426 z-score
ATAGATATCAGTCTCGATTAGTGCTAG | 2.22 z-score
TTCAGTTTCTCTTTCCTTCTGTGCTAG | 5.51 z-score
TTAGGAGTGGACACTGGGTTAGTGCTA | -0.416 z-score
AGATATCTGCACTCTCATGTGTGCTAG | 0.372 z-score
GACGAAATCGGGTATCGAGACGTGCTA | 1.81 z-score
TCATGTTTGGTCCTGATACTGTGCTAG | 0.0467 z-score
TGAGGTTTCCTTCTCCTTTAGTGCTAG | 0.943 z-score
TCGTTATCCTATATCTGAACGTGCTAG | 0.581 z-score
TCACCTATCTCCTCACAGACTGTGCTA | 0.276 z-score
TCATTTTCATTTTATGACACTGTGCTA | 4.01 z-score
TCATTTTACAATTTGCTACTGTGCTAG | 0.759 z-score
GACGGACTGGGTTTCGGGAAGTGCTAG | 2.52 z-score
TTAGGTCTCGGTCTCAGTTAGTGCTAG | 0.406 z-score
TCATTTTTATCAAATGTGACTGTGCTA | 0.777 z-score
GACGGACTGGACACTGCGGACGTGCTA | -0.672 z-score
TTTGCTTTACTGATGGCCCTGTGCTAG | 0.305 z-score
GACGGTATCGGGGATCGGGACGTGCTA | 0.986 z-score

Block 3
Target: RNA binding protein fox-1 homolog 2, RRM domain, GST-SBP tag (RBFOX2, Homo sapiens, UniProt O43251-10, residues 100-194)
Technique: RNA Bind-n-Seq
Molecule type: RNA
Matrix: in vitro
Tested at: 365 nM
Notes: natural RNA segment, single round, ends assumed
Reference: no-protein control
Direction: higher = stronger binding
Constant ends, left off below: GGGAGUUCUACAGUCCGACGAUC … UGGAAUUCUCGGGUGCCAA
Residues (chain): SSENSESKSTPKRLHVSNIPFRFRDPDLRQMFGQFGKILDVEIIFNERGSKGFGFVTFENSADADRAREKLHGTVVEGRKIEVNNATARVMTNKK
Oligonucleotide | RBNS enrichment (R)
UGAAUGCAUGGCAUGAUACAACUAAUUUAAGAGUCUUUUAUAAAUAAAGUUUGCAUUAACUAUACCUACUCCCAAGAUGCUCCAUAUCAUGGAGUGUUGGGCAGCAAUUU | 17.2
CUUGCUCUAGGGCACUCUGCCUCUACCCUAGGACACUGGAAUGCCCUGGGAGCCCCCUCCCUGCAACCAGCCUGAGUUCAGCCCCACGGACAAAGGGACACACAGCCCCC | 2.27
UUUGAGCUGUAGAGACUCAUGCUGGAUUCAAACUGAGAACCCUGGAAGGAAGGCCAGGCUAGUUUAGGGCUCAGCGCGUCUCACCAGAGCCCUUCCAUACUCUGUGACUC | 0.43
GGCUACAGCCCUGCUGCUGCUCCCUUCCUUCUUCUGUCCUGUUUCCAGCCUUGCAAGAAGGCUAUUCACAAUUAGGCCUGGCUGCUUCUCUCAUUUUUUUCCUCCCAGUU | 1.31
CACUUGGGUAGAAAUACAGUCUGAUCAAGCAACGGUGUAAGGAAAAGUCCCUAAUUCACAACCUCCUUGAUCUUAUGACCCUUGAAAACCUCAAGACCGAAGCCUGACCA | 0.314
AAAUUCACAUGCAGGAUUUACUUUAUACUGUAGAAUACUGACUUUCAUGAUGACAACUUGAUUUAUGCAUGAAUAUCAACAGUAUUUCCAUAUAGUAAAAUAACAUUUCU | 2.66
UUAGCAGUUUUAUGCUGGCGAUAAUUUAUCUACGUGCAUUGCAAUAAACAUUUCGUUUCCUAAGAUGAGACAUUCCGUGGCUUUUUUGAAAACCCUUGGAAAAGCAUUGC | 0.571
AUGGACCCCAGAGCUUUGGGCCCAGGGUGAGGGCAAGGGGAACUCUUCAGCCCCUUGCCUAGAGAGAUGGCCUGAUGGCCUUUUGUGCUUCCCCCCAGAGGGCAGUGGGG | 0.566
UGUCCCUCUCUGGCUUGGUCCCCUUCCUCCCUACUUUCUGUAAAUAUCUGUAUCUAAACCAGAAUAUUUUGGUCAAAUAUAAAACAAUAAUAAAAAAAGUUCUGAUGUCA | 0.37
GUGGCCUCUGCCUGGCUGUUUGGGGUCCUGCACGGCUUUCCCACCACCUGUAGCUCUUGUUGACCUGCCUGUUCACCUCAUGAGUGAAGCGUCUGCCUGGCAGUGGGCCA | 2.55
UCCACCACAUCUUGAUUCUUGCAGGAGGGAAGAUUUGAUCCCUUAGAGAAAUAGCCUGUGGGACUUGUUAAAGAAGAUAGAUAGUAAGAAAAGCAGCCAUUGCGUGCCCU | 1.11
AGCCAAGUCAUGAAUCCAGCCUAAAAGCUUGUCCCGGAAAACCAUGGUGCCAUCUGACUUUGAGAGCAUAGAAGUCUUUCCCCAGUCUUCUUCAGGGUCUCCCCCCAACC | 0.435

Block 4
Target: ABI1, truncated, D143A, DHFR fusion (Arabidopsis thaliana)
Technique: DHFR PCA, deep sequencing
Matrix: yeast
Notes: methotrexate growth selection, single substitutions
Added: (+)-ABA 0 µM
Reference: wild-type fitted maximum
Direction: higher = stronger binding
Starting sequence: PYL1, truncated, DHFR fusion (Arabidopsis thaliana); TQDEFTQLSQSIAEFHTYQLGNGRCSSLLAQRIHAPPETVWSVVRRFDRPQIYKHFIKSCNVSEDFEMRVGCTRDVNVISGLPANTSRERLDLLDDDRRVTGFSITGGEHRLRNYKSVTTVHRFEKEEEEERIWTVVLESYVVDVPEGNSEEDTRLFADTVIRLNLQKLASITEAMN; partner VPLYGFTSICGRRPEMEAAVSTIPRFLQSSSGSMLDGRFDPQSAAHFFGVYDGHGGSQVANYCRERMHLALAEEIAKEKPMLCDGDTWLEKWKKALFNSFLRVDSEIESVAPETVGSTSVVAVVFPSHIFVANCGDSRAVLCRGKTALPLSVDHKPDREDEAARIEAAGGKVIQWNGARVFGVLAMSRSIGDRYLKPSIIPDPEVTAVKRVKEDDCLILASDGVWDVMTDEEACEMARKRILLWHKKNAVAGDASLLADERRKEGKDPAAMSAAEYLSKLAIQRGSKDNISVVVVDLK
Variant | relative binding score [%]
K126R | 44.9
S140P | 9.93
T6P | 43.3
L169K | -8.19
A158E | -4.47
V136A | -2.41
T6E | 44.4
E174I | -4.48
V143I | -4.91
E64C | 10.9
E127W | 8.21
F124A | 7.26
V137Q | 0.197
A35E | 5.33
Y115L | 0.41
W134A | 4.88
Q51M | -6.03
D96N | 2.41
E152H | 14.1

Repeated from above (block 4):
Variant | relative binding score [%]
Y115L | 0.41
E174I | -4.48
V137Q | 0.197
F124A | 7.26
L169K | -8.19
D96N | 2.41
E127W | 8.21
